Assay results from different studies.
A part holds a random share of what one study measured.

Sample 1 — method: aptamer microarray, sandwich; molecule type: DNA with 2'F-ANA; sample: in vitro; tested at: 200 nM; with: Cy3 exosite-II aptamer, 400 nM; reading: higher = stronger binding; strand: GGTTGGTGTGGTTGG
Target: Prothrombin, mature alpha-thrombin (F2, Homo sapiens, UniProt P00734)
Setting: whole 15-mer aptamer, many near background
Modification | mean fluorescence intensity [a.u.]
2'F-ANA at 4 7 8 11 12 | 611
2'F-ANA at 1 3 4 6 10 12 | 81
2'F-ANA at 1 5 6 8 9 10 13 14 15 | 49.4
2'F-ANA at 1 2 5 7 8 13 14 | 44.4
2'F-ANA at 3 4 5 6 7 14 | 51.3
2'F-ANA at 2 3 4 5 7 8 10 11 12 14 15 | 51.4
2'F-ANA at 6 7 10 11 12 14 | 110
2'F-ANA at 4 8 10 13 15 | 101
2'F-ANA at 4 5 6 10 11 12 13 | 49.1
2'F-ANA at 7 8 9 12 13 15 | 741
2'F-ANA at 4 6 7 8 9 10 11 12 13 14 | 58.7
2'F-ANA at 1 2 3 4 5 6 8 9 10 11 13 | 47.7
2'F-ANA at 1 2 3 4 6 7 9 12 13 14 15 | 70.1
2'F-ANA at 1 5 6 10 12 13 15 | 48.9
2'F-ANA at 1 2 3 6 7 8 12 15 | 380
2'F-ANA at 5 8 11 12 13 14 | 51.6
2'F-ANA at 2 3 4 5 6 7 8 9 12 13 15 | 104
2'F-ANA at 3 5 6 12 14 | 60.9
2'F-ANA at 1 2 3 8 9 11 13 15 | 170
2'F-ANA at 1 3 5 6 9 10 12 13 15 | 50.4
2'F-ANA at 2 3 4 6 7 8 | 707
2'F-ANA at 2 3 4 | 767
2'F-ANA at 5 7 8 9 10 14 | 57.8

Sample 2 — method: RNA Bind-n-Seq; molecule type: RNA; sample: in vitro; tested at: 365 nM; baseline: no-protein control; reading: higher = stronger binding
Target: RNA binding protein fox-1 homolog 2, RRM domain, GST-SBP tag (RBFOX2, Homo sapiens, UniProt O43251-10, residues 100-194)
Setting: natural RNA segment, single round, ends assumed
Target sequence (chain): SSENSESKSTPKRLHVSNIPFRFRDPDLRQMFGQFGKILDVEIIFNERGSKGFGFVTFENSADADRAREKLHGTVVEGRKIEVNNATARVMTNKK
Strand | RBNS enrichment (R)
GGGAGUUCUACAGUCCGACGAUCUGACGACGACGAUGAUGAUAGCAGUGACUAAGGAUAUGCUGUGAAGUAUUUAAUUGACUGCCUGAGAGUCAGCUUUGGGGGCGCUCUCAGUUUGCUUUAGCCAUGACUGCUGGAAUUCUCGGGUGCCAA | 0.69
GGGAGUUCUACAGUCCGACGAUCUAUUUAACUGUAUAAAAAUGUUCAUUUUACACAAUAUUUAAUUAAAGUAUUUCUUGUCUGUGAAUUUACUUUUGGUAAUUUUCUCUGUUUUUGAUUAUUAAAAUGACUAAUGGAAUUCUCGGGUGCCAA | 0.544
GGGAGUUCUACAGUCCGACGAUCGACUACAAGAGGAGCAACCCAGAGGAUACACUCCCCUCUCUGGUGUCUGAGGAGUGUGAACCGUUGGGGUCACUUUAGGCCCAGAGUAACUCUCCCAGAAGAAAACUUGUUGGAAUUCUCGGGUGCCAA | 0.329
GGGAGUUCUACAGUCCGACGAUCUUAUCAGAACAAUUUUGUUACCAGGUCAGAAAUUGUGUUCUUUGACAACAGAUUGGAUCUGUAAUGUUGAUUAGUCUUUAGCCAUAACCACUACACUUUUAGAAAGACAGUGGAAUUCUCGGGUGCCAA | 0.564
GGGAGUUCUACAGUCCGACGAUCUUCAGGCUGCCUAAGACAUGUAACGAAACACUUCAAUAAUUGUCCAUGAGGAGAAAAAAAGCAUGUGUCAUGCAUGAAGGAAACUGAACUUGAGGUGGCCUCCUUGCUUGUGGAAUUCUCGGGUGCCAA | 3.22
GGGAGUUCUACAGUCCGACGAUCCAUUUAUCAGGGAAAACUGAAAGCAUUUUUCUUAUAACUUUUUUUCUUUUUCUUUUUUUUUGGAGGGGGGAGGCAGGGUCUUGCUCUGUCCCUCAGGCUGGAGCUUAGCUUGGAAUUCUCGGGUGCCAA | 0.337
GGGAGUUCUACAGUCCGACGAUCGUUCCUAGUGAUGUGGAGGUUUAUGGGUGAAAAAUUAGUGGAGAGGGAACUCCUCUCCCCCAUUUUGUGUAGAGUGAAAAUAGCCUGAAGCCCCUACUCAGCAGGGCUCUUGGAAUUCUCGGGUGCCAA | 0.848
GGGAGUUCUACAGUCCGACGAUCCAUUCUUGGGUGGAAAUAGGUCUCCGUUUACCUGAGCUGAGGGUUGUUUGGAAAAUAAGAGCCAAUUUUUCUUAGAAUAUAUAUGUAUAUUAAAUGAGCAUUUGACCUGUUGGAAUUCUCGGGUGCCAA | 0.618
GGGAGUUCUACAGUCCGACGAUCUCGGCUCUCCAAUUUAACUCUUUGGCAACAGGAAACAGGUUUUGCAAGUUCAAGGUUCACUCCCUAUAUGUGAUUAUAGGAAUUGUUUGUGGAAAUGGAUUAACAUACCCUGGAAUUCUCGGGUGCCAA | 0.436
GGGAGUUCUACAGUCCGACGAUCUAAUCCCAAAUGUCUGAAUGUUUUGCAGUGUGUAGGGGUUUGAGCCCCUUGUUCAUUCUCCUUCCUUUUUCCUCCCGCUUCCCUCUCCAUGAAGUGAUUCUGUUGACAAUUGGAAUUCUCGGGUGCCAA | 0.483
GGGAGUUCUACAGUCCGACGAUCGGAUACCACAUGUUUUAUAUAUAAAUAAUUACUGUUUAUGAUAUAGACAUUGAUAUUGACUAUUUAGAGAACCGUUGUUAAUUUUAAAACUAGCAAUCUAUAAAGUGCACUGGAAUUCUCGGGUGCCAA | 0.478
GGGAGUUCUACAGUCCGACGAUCGCCCCAUCUAUAUUAAAGGAAUCCUGUCUUUUUUUGUUUGUUUGUUUUUAAAUAUUGUGAUGUUUUAAGAGCCGAUGCUGGCUUCUUUUUUGCAUGUUACAGUUUUCUGGUGGAAUUCUCGGGUGCCAA | 18.4

Sample 3 — method: protein-binding microarray; molecule type: double-stranded DNA, one strand shown; sample: in vitro; tested at: not given; reading: higher = stronger binding
Target: Max-binding protein MNT, bHLH-zipper, MAX partner unstated (MNT, Homo sapiens, UniProt Q99583, residues 220-300)
Setting: k-mer, scored over probes, only values ≥0.25
Target sequence (chain): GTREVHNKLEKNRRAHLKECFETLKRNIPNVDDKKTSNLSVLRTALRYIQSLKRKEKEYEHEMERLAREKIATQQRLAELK
Strand | E-score
CACGTTTC | 0.409
ACACGTTA | 0.405
ATGAGCAC | 0.273
ATGCGGAC | 0.32
CGTACACG | 0.423
CCACGCAA | 0.27
GCACGTGC | 0.498
CGTCCACG | 0.318
ATCCATGC | 0.297
AATCCACG | 0.291
CATGGCAC | 0.336
ACATGTAA | 0.307
GGCGTGGA | 0.316
AACGTGCG | 0.42
CCCTCGCG | 0.275
TCACGCGA | 0.372
CACGCTAG | 0.286
GCATGTCA | 0.355
ACACGCCT | 0.311
CGTGTAAA | 0.319
ACACGCCC | 0.321
GTGTGCAA | 0.257
CGTGAAAG | 0.251
CCCGTGTC | 0.283
GTGCGCGA | 0.252

Sample 4 — method: protein binding microarray; molecule type: double-stranded DNA, one strand shown; sample: in vitro; tested at: not given; baseline: not given; reading: higher = stronger binding
Target: Histone acetyltransferase KAT6A, winged helix 2, GST fusion (KAT6A, Homo sapiens, UniProt Q92794, residues 85-181)
Setting: 8-mer, flanks averaged, mean of 2 arrays, mostly near background
Residues (chain): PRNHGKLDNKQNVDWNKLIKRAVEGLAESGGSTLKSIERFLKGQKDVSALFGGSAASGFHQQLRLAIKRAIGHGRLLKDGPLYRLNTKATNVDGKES
Strand | E-score
GACATGTC | -0.249
CTGGGAAC | 0.107
CAAATATC | 0.129
GATACGAC | -0.169
TGAGTCCA | -0.00392
ACCCCAGT | -0.118
ACTGGATC | -0.0393
AGGAATAT | 0.0927
CAACAAGC | 0.051
TCAAAGCA | 0.157
CCGATGCA | 0.0262
TAAGCCTA | -0.0646
ATTCAGGC | 0.0818
CTATCGCA | 0.147
AGCATGGA | 0.0201
CTTATGAA | -0.0238
CAAATGTC | -0.0554
ATTCACTC | 0.0852
CAATTTAA | 0.183
CAACCGCA | 0.147

Sample 5 — method: protein-binding microarray; molecule type: double-stranded DNA, one strand shown; sample: in vitro; tested at: 2200 nM top; setting: 60-bp whole probe; with: salmon DNA 0.4 mg/ml; baseline: random background probes; reading: higher = stronger binding; all sequences stand within: GCCTAGCAC … GTCTTGATTCGCTTGACGCTGCTG
Target: Interferon regulatory factor 7, full length, phosphomimetic (IRF7, Homo sapiens, UniProt Q92985, residues 1-503, S471D/S472D/S475D/S476D/S477D/S483D/S484D/S487D)
Target sequence (chain): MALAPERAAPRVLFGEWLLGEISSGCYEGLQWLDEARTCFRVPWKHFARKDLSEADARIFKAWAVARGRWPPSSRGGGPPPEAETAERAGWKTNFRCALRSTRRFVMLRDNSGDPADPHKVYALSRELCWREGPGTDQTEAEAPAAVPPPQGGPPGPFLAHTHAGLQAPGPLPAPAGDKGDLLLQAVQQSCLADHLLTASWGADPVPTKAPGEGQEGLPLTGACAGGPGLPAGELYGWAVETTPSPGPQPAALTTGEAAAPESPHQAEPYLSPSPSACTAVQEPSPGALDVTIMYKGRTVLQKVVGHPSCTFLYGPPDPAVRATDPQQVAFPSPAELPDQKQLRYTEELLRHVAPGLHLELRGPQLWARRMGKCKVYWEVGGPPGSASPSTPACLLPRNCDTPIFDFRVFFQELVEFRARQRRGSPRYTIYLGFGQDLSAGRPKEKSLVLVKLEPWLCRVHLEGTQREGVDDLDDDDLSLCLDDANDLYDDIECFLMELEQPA
Strand | fitted relative affinity [z-score]
GACGGTATTGGGACTGGGGACGTGCTA | -0.592
GACGAGTTCGGGACTGGAGACGTGCTA | -0.312
TTCGATATCAGACTGGATTAGTGCTAG | 0.527
TTAGGACTGGTACTGGGTTAGTGCTAG | -0.682
GGCGGTATCGGGACTGGGGACGTGCTA | -1.19
GATGGCAGTGGAAATTTTACGTGCTAG | -0.296
TCAACTTTGGTTTGTACACTGTGCTAG | 1.09
TTAGAACTGGGGTATTGATTAGTGCTA | 0.112
TTAGGTTTCGGGTTTGGGTTAGTGCTA | 8.62
TTAGGTTTCGGTCTCGGTCAGTGCTAG | 6.37
GAAGAACTGAGTCTCGAGACGTGCTAG | -0.432
TTAGATATCGGGTTTAGATTAGTGCTA | 0.298
GACAATTTCGGGACTGGAGACGTGCTA | 1.44
TTAGGTATCGGGACTGGGTTCGTGCTA | -0.311
TTAAATATCAGTCTCGATTAGTGCTAG | 0.0476
GACTATCTCAGTCTCGAGACGTGCTAG | 0.654
CTGTTTTTGCTTTCCTTTATGTGCTAG | 5.84
GGGATAAGGACAGACACCATGTGCTAG | -0.7
GACGGTTTTCTTATCCTGACGTGCTAG | 2.01
TTAGAACTGCGACTGGATTAGTGCTAG | -0.374
TTAGGCCTGGGGACTGGGTTAGTGCTA | -1.19
TTGTGTTTGGGCATTTTTCTAGTGCTA | 0.538
GACGGTCTCGGACTGGGGTCGTGCTAG | -0.6

Some of these lines once more (sample 5):
Strand | fitted relative affinity [z-score]
GACGAGTTCGGGACTGGAGACGTGCTA | -0.312
TTCGATATCAGACTGGATTAGTGCTAG | 0.527
TTAGGACTGGTACTGGGTTAGTGCTAG | -0.682
GGCGGTATCGGGACTGGGGACGTGCTA | -1.19
GATGGCAGTGGAAATTTTACGTGCTAG | -0.296
TCAACTTTGGTTTGTACACTGTGCTAG | 1.09
TTAGAACTGGGGTATTGATTAGTGCTA | 0.112
TTAGGTTTCGGGTTTGGGTTAGTGCTA | 8.62
TTAGGTTTCGGTCTCGGTCAGTGCTAG | 6.37
GAAGAACTGAGTCTCGAGACGTGCTAG | -0.432
TTAGATATCGGGTTTAGATTAGTGCTA | 0.298
GACAATTTCGGGACTGGAGACGTGCTA | 1.44
TTAGGTATCGGGACTGGGTTCGTGCTA | -0.311
TTAAATATCAGTCTCGATTAGTGCTAG | 0.0476
GACTATCTCAGTCTCGAGACGTGCTAG | 0.654
